Assay results gathered from unrelated publications.
Parts stem from different laboratories: compare values within a part only. Substitutions count along the parent as printed.

Sample 1 — method: RNA Bind-n-Seq; molecule type: RNA; medium: in vitro; concentration: 365 nM; relative to: no-protein control; direction: higher = stronger binding
Target: RNA binding protein fox-1 homolog 2, RRM domain, GST-SBP tag (RBFOX2, Homo sapiens, UniProt O43251-10, residues 100-194)
Notes: natural RNA segment, single round, ends assumed
All sequences stand within: GGGAGUUCUACAGUCCGACGAUC … UGGAAUUCUCGGGUGCCAA
Target sequence (chain): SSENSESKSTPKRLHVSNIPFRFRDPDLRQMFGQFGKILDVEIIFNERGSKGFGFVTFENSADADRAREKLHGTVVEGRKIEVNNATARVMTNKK
Oligonucleotide	RBNS enrichment (R)
GGGCAGGAGAACCCCUCGCUUUCCCCACCAUGGGAGCAUUUGCUGGGAAGUGUCUUUUCAGGACUUAAAUCACCGGAGCCACUGUGGUAGCUUGUGGGGGUGGGUGGGCA	1.14
GCUUUCAAGUGCUGUCUGGGGGGGCCAGCCCCACGAGCCUCCAACCACAUUAGAGGCUGGGAACAGCCAGGAUGUUGCCAAAGCCCCUGGCCUUUCCUGUACACGCCUGU	0.332
AUUGUAAACUUUUUCAAUGGUUGGGACAAUGGCAAUAGGACAAAACGGGUUACUAAGAUGAAAUUGCCAAAAAAAUUUAUAAACUAAUUUUGUACGUAUGAAUGAUAUCU	0.575
CCCCCACCCCCUGGGAUGACUGCCUUGAUUCCCAUGGGGAACAACUUUAAAGAAAACCACCACAGCAUUCCAAGGAGUCUGGCGUUCCUCCUCCCUGCCAGAUGACUGUC	0.741
GGCUUGCUCACUGGACACCCACAGAUCUGGCCCUUUGAAAGGCAGCCUUCAGAUGCCCAUCGUGUGAGAGGCGCUGCCUGUUGAUGAAGUGUGUGACCUUUUCUCCUGCU	0.236
UUAUUUUAUUUGGAGAAGAGGGAUACAAUGGAAUUUUUCCUUACCAAUUAGAAAUAAUUGUAAUGCCUAAAAAACUUUUUCACAAAAAUGAAUCUUUGAAAUUUUUUAUU	1.09
UAGUUUUAUUUUGGUGGGGCUGGGCGGGAAGGAAGGCUGGGGUUUUGUAAAGUGUCCACUGCGCCGUUCGUUUAUUUCCCUCGAUUUUCUUCUUCCUCUCGCCUUCCUUC	0.617
UGUGAUCAAUCCCUAGUAAAAGCCCUGGACACCUAGGCAUGGGUGAGCUACUCUGGUUGGUAAUACUCUGUGCACACAUCAUUGUAGCCACACAUCAUUGCUGGGAGAAU	0.252
CUGUGCACUAGAAAGUUGCAGCCCACAGCCCUUCAUGUGGACUCUGUCAUGACAUGCUAACUAGACUUCAGGGGAGCCACUUCUGUUUUCAGCCCCUCCCUGGAAUAGUG	0.643
AACCUGUGGGUCAUCCCCAGGCUGAAUGGAGUACACACUAGAAGAGGGAUGAUGCCUAGCAUUGGGGCAGCAUCUGCUCAGCACAUGGAAAGGGACCUGGUUCCAUCUCC	0.473
UUAUAUGUAUGAAUAUUUCAUAGUUUUGCAUAUCAGAUGUAGGCAUACAGACAAAUACAUAAACCAAUGAAUAUAUUACAUAUUCUGUGUUCCAAUAAAACUUUAUUUAU	0.327
AGGGCCCCUCUCCUGGCAUCUGUCUCUUGCUACCUAAGCCUGUGCCUCUCCCUAAAGAGCUGCCUCCCUGCUGCCGAGCCCUGGUCUGGCCACGAGCCACCACUGCCUCC	0.536

Sample 2 — method: universal PBM; molecule type: double-stranded DNA, one strand shown; medium: in vitro; concentration: not given; direction: higher = stronger binding
Target: Sal-like protein 4, full length isoform B (SALL4, Homo sapiens, UniProt Q9UJQ4-2, residues 1-616)
Notes: 8-mer, flanks averaged, mean of replicates
Construct (chain): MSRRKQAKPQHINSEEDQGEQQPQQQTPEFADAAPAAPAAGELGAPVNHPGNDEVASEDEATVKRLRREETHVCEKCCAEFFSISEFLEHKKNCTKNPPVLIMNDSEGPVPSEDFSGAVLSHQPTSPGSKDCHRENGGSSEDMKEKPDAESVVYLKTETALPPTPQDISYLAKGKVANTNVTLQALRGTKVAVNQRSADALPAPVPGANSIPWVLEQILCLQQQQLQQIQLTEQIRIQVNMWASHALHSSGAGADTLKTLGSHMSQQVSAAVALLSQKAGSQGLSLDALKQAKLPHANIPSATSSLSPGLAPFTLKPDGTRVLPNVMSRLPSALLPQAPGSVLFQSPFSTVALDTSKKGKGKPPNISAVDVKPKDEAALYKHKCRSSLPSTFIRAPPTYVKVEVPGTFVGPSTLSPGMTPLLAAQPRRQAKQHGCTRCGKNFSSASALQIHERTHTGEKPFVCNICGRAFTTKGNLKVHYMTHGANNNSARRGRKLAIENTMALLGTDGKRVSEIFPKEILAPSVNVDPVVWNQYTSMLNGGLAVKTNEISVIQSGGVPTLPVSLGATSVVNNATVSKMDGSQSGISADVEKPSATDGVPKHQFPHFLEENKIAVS
Oligonucleotide	E-score
TTACAGAA	0.23
ACCCAGGA	-0.243
GGGGAAAC	-0.211
AACGGTGC	-0.0568
AGTAATTA	0.349
CTCCGCAG	-0.169
CCTGTGCA	-0.089
ATGTTCTC	0.114
GACCACCA	-0.21
CCTCTTAG	0.0471
GAGGAACA	0.029
ATAGCCAC	0.0168

Sample 3 — target: CCNA2, cyclin fold, Cln2 fusion (human); method: yeast growth competition, sequencing; medium: yeast; notes: weak parent motif; relative to: not given; direction: higher = stronger binding
Starting sequence: MASTL docking peptide (human); PMIAKNLMCELDE
Variant	normalised enrichment score
PMIAKNLMCELKE [D12K]	0.242
PMIAKNDMCELDE [L7D]	-0.288
PMIAKNLMIELDE [C9I]	-0.206
PMIAKNLMCELHE [D12H]	0.276
PCIAKNLMCELDE [M2C]	-0.0566
PMIAKNKMCELDE [L7K]	-0.0683
PMIAKNYMCELDE [L7Y]	-0.0748
PMIKKNLMCELDE [A4K]	0.483
PMIACNLMCELDE [K5C]	-0.315
PMIWKNLMCELDE [A4W]	0.0623
PMIAKNLMCELIE [D12I]	-0.445
PMIAKNLSCELDE [M8S]	0.0828
PMIAKNLMCVLDE [E10V]	0.361
PMIAKNLMCEGDE [L11G]	-0.00987
PMIAKNEMCELDE [L7E]	-0.231

Other studies, line by line
Substance	target	assay	system	setting	scale	measurement	value
PhoQ, residues 284 288 289 292 302 303 ASHLAV	PhoP, residues 12 14 15 18 19 GHCSL (Escherichia coli, UniProt P23836)	Sort-seq, refers to: YFP reporter	E. coli	PhoQ-PhoP variant library, added: 10 µM Mg2+	relative to: high Mg2+ state, higher = stronger signaling	fold induction	11.4

Repeated from above (sample 3):
Variant	normalised enrichment score
PMIAKNLMCELHE [D12H]	0.276
PCIAKNLMCELDE [M2C]	-0.0566
PMIAKNKMCELDE [L7K]	-0.0683
PMIAKNYMCELDE [L7Y]	-0.0748
PMIKKNLMCELDE [A4K]	0.483
PMIACNLMCELDE [K5C]	-0.315
